Measured values from different studies.
Each line is one published result; not all experiments were run side by side. ± gives the spread as reported.
ACHE: Acetylcholinesterase (ACHE, Homo sapiens, UniProt P22303)
Sequence of UniProt P22303 (whole entry, looked up): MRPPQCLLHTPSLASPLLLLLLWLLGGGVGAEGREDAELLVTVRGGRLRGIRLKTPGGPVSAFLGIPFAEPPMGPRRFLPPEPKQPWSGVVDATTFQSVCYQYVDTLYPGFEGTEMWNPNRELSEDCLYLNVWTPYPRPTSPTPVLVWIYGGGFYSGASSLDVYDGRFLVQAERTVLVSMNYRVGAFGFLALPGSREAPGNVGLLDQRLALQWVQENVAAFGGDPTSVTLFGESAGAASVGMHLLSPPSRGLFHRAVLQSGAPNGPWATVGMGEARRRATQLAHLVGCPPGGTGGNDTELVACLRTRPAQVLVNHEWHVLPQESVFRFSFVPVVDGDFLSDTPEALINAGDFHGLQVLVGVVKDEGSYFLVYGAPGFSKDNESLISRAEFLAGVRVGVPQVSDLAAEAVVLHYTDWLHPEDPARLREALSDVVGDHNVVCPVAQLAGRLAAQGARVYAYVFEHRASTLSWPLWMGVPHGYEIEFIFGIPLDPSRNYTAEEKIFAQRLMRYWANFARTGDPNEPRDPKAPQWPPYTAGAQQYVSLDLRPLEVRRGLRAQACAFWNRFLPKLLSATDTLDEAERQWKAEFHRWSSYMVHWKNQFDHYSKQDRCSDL
PFF0160c E182D: Dihydroorotate dehydrogenase (quinone), mitochondrial (PFF0160c, Plasmodium falciparum, UniProt Q08210, E182D)
Sequence of UniProt P36544 (whole entry, looked up): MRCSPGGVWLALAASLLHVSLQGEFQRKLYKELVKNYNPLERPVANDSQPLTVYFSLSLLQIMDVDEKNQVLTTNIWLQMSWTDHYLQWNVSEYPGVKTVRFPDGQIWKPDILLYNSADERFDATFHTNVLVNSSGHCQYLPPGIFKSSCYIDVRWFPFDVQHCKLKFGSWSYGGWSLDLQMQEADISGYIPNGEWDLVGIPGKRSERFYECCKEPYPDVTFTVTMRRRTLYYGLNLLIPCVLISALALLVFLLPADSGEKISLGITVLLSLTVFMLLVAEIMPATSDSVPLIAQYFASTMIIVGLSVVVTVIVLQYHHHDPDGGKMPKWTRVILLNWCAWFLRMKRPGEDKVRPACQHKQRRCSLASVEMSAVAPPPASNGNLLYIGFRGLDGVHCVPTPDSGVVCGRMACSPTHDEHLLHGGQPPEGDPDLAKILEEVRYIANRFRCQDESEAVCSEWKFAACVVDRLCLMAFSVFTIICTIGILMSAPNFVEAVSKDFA
Sequence of UniProt Q08460 (whole entry, looked up): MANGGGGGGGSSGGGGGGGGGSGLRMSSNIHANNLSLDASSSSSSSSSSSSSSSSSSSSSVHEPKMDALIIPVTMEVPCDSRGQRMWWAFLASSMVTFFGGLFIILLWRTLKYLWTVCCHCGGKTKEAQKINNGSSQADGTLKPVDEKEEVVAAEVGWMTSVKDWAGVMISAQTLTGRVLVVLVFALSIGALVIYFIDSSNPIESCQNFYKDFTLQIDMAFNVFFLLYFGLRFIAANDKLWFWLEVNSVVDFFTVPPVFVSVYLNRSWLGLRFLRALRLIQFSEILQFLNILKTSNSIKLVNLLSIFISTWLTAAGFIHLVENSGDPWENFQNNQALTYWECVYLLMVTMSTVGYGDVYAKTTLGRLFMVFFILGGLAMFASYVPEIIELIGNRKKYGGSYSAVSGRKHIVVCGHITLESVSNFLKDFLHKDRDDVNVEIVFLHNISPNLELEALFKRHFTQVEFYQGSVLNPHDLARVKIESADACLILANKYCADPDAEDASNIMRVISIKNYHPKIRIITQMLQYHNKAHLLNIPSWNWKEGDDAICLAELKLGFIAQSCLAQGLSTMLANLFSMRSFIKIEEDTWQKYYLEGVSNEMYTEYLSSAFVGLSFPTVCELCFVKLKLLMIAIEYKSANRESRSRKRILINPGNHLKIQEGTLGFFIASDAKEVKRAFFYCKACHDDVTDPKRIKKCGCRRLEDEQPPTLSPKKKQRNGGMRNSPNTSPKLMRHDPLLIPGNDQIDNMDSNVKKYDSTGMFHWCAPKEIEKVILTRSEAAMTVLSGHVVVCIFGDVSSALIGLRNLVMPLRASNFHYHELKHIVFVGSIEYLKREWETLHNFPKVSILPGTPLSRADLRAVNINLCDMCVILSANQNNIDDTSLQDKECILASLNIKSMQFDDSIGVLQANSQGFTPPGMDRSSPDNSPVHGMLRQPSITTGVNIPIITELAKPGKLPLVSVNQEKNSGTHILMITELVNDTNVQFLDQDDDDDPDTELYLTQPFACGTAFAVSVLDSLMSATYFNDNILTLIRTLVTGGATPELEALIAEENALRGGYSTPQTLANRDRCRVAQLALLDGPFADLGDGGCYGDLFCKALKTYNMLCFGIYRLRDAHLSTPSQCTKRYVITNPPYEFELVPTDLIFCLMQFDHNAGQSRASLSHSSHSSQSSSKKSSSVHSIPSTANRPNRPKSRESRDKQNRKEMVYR
Sequence of UniProt Q04609 (whole entry, looked up): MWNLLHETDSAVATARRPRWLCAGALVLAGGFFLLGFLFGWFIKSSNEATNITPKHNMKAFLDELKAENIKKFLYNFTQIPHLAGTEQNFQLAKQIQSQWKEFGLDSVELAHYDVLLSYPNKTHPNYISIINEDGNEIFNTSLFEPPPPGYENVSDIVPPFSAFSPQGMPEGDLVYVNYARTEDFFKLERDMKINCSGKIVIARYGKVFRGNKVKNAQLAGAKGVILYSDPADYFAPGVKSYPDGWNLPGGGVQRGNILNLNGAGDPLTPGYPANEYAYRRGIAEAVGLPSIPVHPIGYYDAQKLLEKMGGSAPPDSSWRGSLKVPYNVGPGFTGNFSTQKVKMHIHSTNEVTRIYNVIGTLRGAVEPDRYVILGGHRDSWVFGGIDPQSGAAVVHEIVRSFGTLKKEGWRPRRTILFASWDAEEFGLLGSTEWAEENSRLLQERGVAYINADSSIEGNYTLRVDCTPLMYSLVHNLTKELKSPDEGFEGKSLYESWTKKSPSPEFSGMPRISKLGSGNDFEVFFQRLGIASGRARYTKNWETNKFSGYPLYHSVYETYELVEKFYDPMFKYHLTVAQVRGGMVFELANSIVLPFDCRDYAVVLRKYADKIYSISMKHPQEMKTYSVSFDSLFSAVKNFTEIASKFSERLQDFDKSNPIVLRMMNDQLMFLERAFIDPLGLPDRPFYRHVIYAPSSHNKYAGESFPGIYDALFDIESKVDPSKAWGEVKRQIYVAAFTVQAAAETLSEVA
Sequence of UniProt P18089 (whole entry, looked up): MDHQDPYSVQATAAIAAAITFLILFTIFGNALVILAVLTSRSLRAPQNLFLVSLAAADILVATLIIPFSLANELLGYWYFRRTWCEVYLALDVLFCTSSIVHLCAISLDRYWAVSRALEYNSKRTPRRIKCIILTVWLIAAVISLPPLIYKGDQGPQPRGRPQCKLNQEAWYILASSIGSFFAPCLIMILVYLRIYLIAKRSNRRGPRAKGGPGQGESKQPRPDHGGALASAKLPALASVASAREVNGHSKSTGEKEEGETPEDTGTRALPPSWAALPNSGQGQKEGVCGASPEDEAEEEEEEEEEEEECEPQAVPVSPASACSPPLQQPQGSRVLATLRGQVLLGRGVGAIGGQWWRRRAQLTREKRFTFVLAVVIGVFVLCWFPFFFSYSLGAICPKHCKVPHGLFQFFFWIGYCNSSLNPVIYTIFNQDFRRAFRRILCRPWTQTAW
Sequence of UniProt O42275 (whole entry, looked up): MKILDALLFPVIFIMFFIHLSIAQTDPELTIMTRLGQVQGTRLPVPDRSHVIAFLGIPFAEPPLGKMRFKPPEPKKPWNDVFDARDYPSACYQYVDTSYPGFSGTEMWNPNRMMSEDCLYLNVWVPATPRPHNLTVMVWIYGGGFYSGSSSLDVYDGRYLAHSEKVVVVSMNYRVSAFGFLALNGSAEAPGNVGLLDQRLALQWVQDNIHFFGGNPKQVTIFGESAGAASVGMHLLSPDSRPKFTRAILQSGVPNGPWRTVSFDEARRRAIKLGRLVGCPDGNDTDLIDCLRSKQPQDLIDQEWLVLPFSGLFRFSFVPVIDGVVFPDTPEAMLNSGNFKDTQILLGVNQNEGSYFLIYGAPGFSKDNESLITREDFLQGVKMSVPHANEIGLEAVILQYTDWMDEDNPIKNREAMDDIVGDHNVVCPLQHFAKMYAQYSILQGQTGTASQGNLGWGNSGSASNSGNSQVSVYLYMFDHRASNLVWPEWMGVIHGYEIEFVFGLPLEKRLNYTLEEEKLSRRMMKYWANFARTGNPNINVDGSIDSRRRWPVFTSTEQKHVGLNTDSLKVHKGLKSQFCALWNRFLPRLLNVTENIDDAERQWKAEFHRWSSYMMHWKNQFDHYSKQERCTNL
Sequence of UniProt O00155 (whole entry, looked up): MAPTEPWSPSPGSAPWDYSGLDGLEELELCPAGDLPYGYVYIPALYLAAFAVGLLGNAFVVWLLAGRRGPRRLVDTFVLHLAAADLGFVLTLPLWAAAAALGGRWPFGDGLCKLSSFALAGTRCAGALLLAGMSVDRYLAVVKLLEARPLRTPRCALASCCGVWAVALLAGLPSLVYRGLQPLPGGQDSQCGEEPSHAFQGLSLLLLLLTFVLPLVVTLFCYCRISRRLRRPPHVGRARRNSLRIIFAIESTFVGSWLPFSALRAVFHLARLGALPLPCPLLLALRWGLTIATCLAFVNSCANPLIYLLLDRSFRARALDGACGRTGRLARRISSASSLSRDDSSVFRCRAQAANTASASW
Sequence of UniProt Q07440 (whole entry, unmodified, looked up): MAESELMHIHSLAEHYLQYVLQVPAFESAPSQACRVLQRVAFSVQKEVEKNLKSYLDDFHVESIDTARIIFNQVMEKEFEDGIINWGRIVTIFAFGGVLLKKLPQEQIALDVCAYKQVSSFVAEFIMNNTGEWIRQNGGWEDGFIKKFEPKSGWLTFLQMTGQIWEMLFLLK
Sequence of UniProt Q9NUJ1 (whole entry, looked up): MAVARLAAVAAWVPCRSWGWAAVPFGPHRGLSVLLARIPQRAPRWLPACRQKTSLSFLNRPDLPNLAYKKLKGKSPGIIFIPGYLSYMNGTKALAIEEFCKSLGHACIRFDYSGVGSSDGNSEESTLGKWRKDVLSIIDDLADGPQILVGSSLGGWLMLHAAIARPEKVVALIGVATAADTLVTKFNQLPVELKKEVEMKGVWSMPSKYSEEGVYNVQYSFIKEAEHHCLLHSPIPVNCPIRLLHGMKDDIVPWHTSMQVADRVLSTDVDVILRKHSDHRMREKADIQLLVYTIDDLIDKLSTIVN

CCN(CC)CCNc1ccc(CO)c2sc3ccccc3c(=O)c12
activity class (ACHE; biochemical; concentration not given): inactive

C=C(C)[C@H]1CN[C@H](C(=O)O)[C@H]1CC(=O)O
activity (uncharacterized protein (Ixodes scapularis, UniProt A0A0N9E2I2); L-glutamate-like response, two-electrode voltage clamp; Xenopus laevis oocytes; 100 µM): inactive

COc1cc(N)c(Cl)cc1C(=O)NC1CN2CCC1CC2 (stereo not drawn)
log2 fold change (Probable G-protein coupled receptor 25 (GPR25, Homo sapiens, UniProt O00155); β-arrestin recruitment, TANGO luminescence, refers to: GPR25; concentration not given; relative to: basal luminescence): 0.057

NC(CO)COP(=O)(O)O (racemic)
Ki (Cj1438c (Campylobacter jejuni, UniProt Q0P8H6); substrate inhibition, PK/LDH coupled; pH 8.0, 25 °C, racemate, added: D-glucuronate 10 mM, ATP 3.0 mM): 19 ± 2 mM

C=C1C(=O)O[C@H]2[C@H]1[C@H](OC(=O)/C(C)=C\C)CC(=C)[C@@H]1[C@H](O)[C@H]3O[C@@]3(C)[C@@]12O
delta Tm (Bcl-2-related protein A1 (Mus musculus, UniProt Q07440, C113S/P104K); differential scanning fluorimetry; 100 µM): 0.33 °C

CC(C)[N+](C)(C)CC(O)COc1cccc2ccccc12 (stereo not drawn)
activity class (ACHE; biochemical; concentration not given): inactive

CC1(C)CN(CCCCC(=O)N[C@H](Cc2ccc(O)c(I)c2)C(=O)N[C@H](Cc2ccccc2)C(=O)N[C@H](CCCCNC(=O)CCCCCCC(=O)NCCCC[C@H](NC(=O)N[C@@H](CCC(=O)O)C(=O)O)C(=O)O)C(=O)O)CC[N]2CC(C)(C)[S][Tc]2(=[O])[S]1 (stereo partly drawn) [technetium-99m labelled]
Bmax (FOLH1 (Homo sapiens, UniProt Q04609); radioligand, saturation binding; LNCaP; 1 h, 37 °C, added: [99mTc]TcO-6): 10.4 ± 6.2 pmol/mg

c1ccc2c3c(ccc2c1)-c1cccc2cccc-3c12
fold change (Aryl hydrocarbon receptor (Danio rerio, UniProt Q9YGV3); reporter gene, agonist, luciferase reporter; ZF-4; 10000 µM; relative to: vehicle control): 16.8

[2H]c1c([2H])c([C@]2([2H])CCCN2C(=O)C(C)(C)Oc2ccc3cn[nH]c3c2)c([2H])c([2H])c1C([2H])([2H])[2H]
remaining binding (COQ8B (Homo sapiens, UniProt Q96D53); KINOMEscan; 1 µM; relative to: DMSO control): 77%

O=C(c1ccc(Cl)cc1)N1CCN2C(=O)N(OC(=O)N3CCOc4ccccc43)C(=O)C2C1 (stereo not drawn)
mean protein ratio (Palmitoyl-protein thioesterase ABHD10, mitochondrial (Homo sapiens, UniProt Q9NUJ1); MS-based ABPP; SW-620 conditioned medium; 10 µM, 1 h, 37 °C; relative to: treated over control): 1.15

CC[C@H](C)[C@H](NC(=O)[C@H](CCC(N)=O)NC(=O)[C@@H](NC(=O)[C@@H]1CCCN1C(=O)[C@@H](NC(=O)[C@H](CO)NC(=O)[C@H](Cc1ccccc1)NC(=O)[C@@H]1CCCN1C(=O)[C@H](CCC(N)=O)NC(=O)[C@@H](N)CCSC)[C@@H](C)CC)C(C)C)C(=O)N[C@H](C(=O)N[C@@H](CC(C)C)C(=O)N[C@@H](CCC(N)=O)C(=O)NCC(=O)N[C@@H](CO)C(=O)N[C@@H](CCCNC(=N)N)C(=O)N[C@@H](CCCNC(=N)N)C(=O)N[C@@H](CCCNC(=N)N)C(=O)N[C@@H](CCC(N)=O)C(=O)NCC(=O)N[C@@H](CCCNC(=N)N)C(N)=O)[C@@H](C)O
Hill coefficient (Kcnma1 (Mus musculus, UniProt Q08460); ion current, blocker, inside-out patch clamp; Xenopus oocytes; +140 mV, added: 10 µM cytosolic Ca2+): 1.22

Cn1cc(-c2ccc(-n3ccc(OCc4ccc(Cl)cn4)cc3=O)cn2)cn1
IC50 ratio (PFF0160c E182D; enzyme activity, DCIP colorimetric; relative to: E182D mutant over wild type): 0.5

CN(C(=O)n1cnc(-c2ccc[n+]([O-])c2)c1)C1CCCCC1
fold change (androgen-induced gene 1 protein (Rattus norvegicus, UniProt F7EZV5); enzyme activity, ABPP; rat, brain; oral, 100 mg/kg/day, 7 days; relative to: vehicle): -2.6

CCOC(=O)COc1ccc2c(=O)c3ccccc3oc2c1
reaction velocity (ache (Electrophorus electricus, UniProt O42275); enzyme activity; 0.42 µM, added: substrate 0.43 mM; higher = faster reaction): 0.0006 a.u.

Cc1nc2ccccc2n1[C@@H]1C[C@H]2CC[C@@H](C1)N2Cc1nccn1-c1ccccc1.O=C(O)C(F)(F)F
IC50 ratio (PFF0160c E182D; enzyme activity, DCIP colorimetric; relative to: E182D mutant over wild type): 10.4

C[N+]1(C)CCN(c2ccccc2)CC1
response (CHRNA7 (Homo sapiens, UniProt P36544); net charge, agonist, two-electrode voltage clamp; Xenopus laevis oocytes; 30 µM, with RIC3; relative to: acetylcholine 60 µM): 90%

CN1CCN(c2cc(-c3ccncc3)c(-c3ccc4ccccc4c3)nn2)CC1
activation (FFAR1 (Homo sapiens, UniProt O14842); agonist, FLIPR; 12.5 µM): 10.4%

OC1Cc2ccccc2CC1N1CCC2(CC1)C(Br)=Cc1ccccc12 (racemic)
selectivity ratio (Vesicular acetylcholine transporter (Rattus norvegicus, UniProt Q62666); relative to: Ki sigma1 over Ki VAChT): 20

CC(=O)NC[C@H]1[C@H](O)[C@H](O)[C@@H]2[C@H](O)C[C@@H](CO)N21
inhibition (Spodoptera litura β-N-acetylglucosaminidase; crude enzyme; 0.0251 µM, run 1, added: p-nitrophenyl GlcNAc): 62.7%

O=C(Nc1cnccc1Cl)N1CCN(Cc2ccc3c(c2)OC(F)(F)O3)CC1
inhibition (ADRA2B (Homo sapiens, UniProt P18089); binding; 10 µM, added: [3H]rauwolscine): 13%

CC(=O)c1c(Cc2ccccc2Cl)c[nH]c1C
IC50 ratio (PFF0160c E182D; enzyme activity, DCIP colorimetric; relative to: E182D mutant over wild type): 0.2

COc1cc(Nc2ncc(F)c(Nc3ccc4c(n3)NC(=O)C(C)(C)O4)n2)cc(OC)c1OC
inhibition (IGF1R (Homo sapiens, UniProt P08069); KINOMEscan; 10 µM): 81%

COc1ccc2[nH]c3c(c2c1)CCN(C)CC3.Cl
Hill coefficient (Neuronal acetylcholine receptor; alpha9/alpha10 (Homo sapiens, UniProt Q9GZZ6+Q9UGM1); ion current, inhibitor, two-electrode voltage clamp; Xenopus laevis oocytes; added: 6 µM acetylcholine): 1.8 ± 0.2

NCCc1c[nH]c2ccccc12
Km (NMT from Rhinella marina; 10 min, 30 °C): 96.3 ± 12.8 µM

C[C@H]1CN(c2n[nH]c3nc(N[C@H]4CC[C@H](NS(=O)(=O)CCC(F)(F)F)CC4)ncc23)CCO1
relative abundance (STK17B (Homo sapiens, UniProt O94768); inhibitor, Kinobeads competition profiling; 0.8 µM; relative to: vehicle): 1.06

COc1ccc(N2C(=O)N(c3c(C)cccc3Cl)Cc3cnc(Nc4ccc(C5CCN(C)CC5)cc4OC)nc32)nc1
inhibition (PLK4 (Homo sapiens, UniProt O00444); kinase activity; 0.5 µM): 2.62%

Nc1ccn([C@H]2C[C@H](O)[C@@H](COP(=O)(O)OP(=O)(O)OP(=O)(O)O)O2)c(=O)n1
kpol (DNA polymerase I, Klenow fragment (polA, Escherichia coli, UniProt P00582, C907S/D424A/L744C); substrate, single-turnover chemical quench; added: dNTP): 30 s⁻¹

For quick reference, copied from above:
CC[C@H](C)[C@H](NC(=O)[C@H](CCC(N)=O)NC(=O)[C@@H](NC(=O)[C@@H]1CCCN1C(=O)[C@@H](NC(=O)[C@H](CO)NC(=O)[C@H](Cc1ccccc1)NC(=O)[C@@H]1CCCN1C(=O)[C@H](CCC(N)=O)NC(=O)[C@@H](N)CCSC)[C@@H](C)CC)C(C)C)C(=O)N[C@H](C(=O)N[C@@H](CC(C)C)C(=O)N[C@@H](CCC(N)=O)C(=O)NCC(=O)N[C@@H](CO)C(=O)N[C@@H](CCCNC(=N)N)C(=O)N[C@@H](CCCNC(=N)N)C(=O)N[C@@H](CCCNC(=N)N)C(=O)N[C@@H](CCC(N)=O)C(=O)NCC(=O)N[C@@H](CCCNC(=N)N)C(N)=O)[C@@H](C)O
Hill coefficient (Kcnma1 (Mus musculus, UniProt Q08460); ion current, blocker, inside-out patch clamp; Xenopus oocytes; +140 mV, added: 10 µM cytosolic Ca2+): 1.22

Cn1cc(-c2ccc(-n3ccc(OCc4ccc(Cl)cn4)cc3=O)cn2)cn1
IC50 ratio (PFF0160c E182D; enzyme activity, DCIP colorimetric; relative to: E182D mutant over wild type): 0.5

CN(C(=O)n1cnc(-c2ccc[n+]([O-])c2)c1)C1CCCCC1
fold change (androgen-induced gene 1 protein (Rattus norvegicus, UniProt F7EZV5); enzyme activity, ABPP; rat, brain; oral, 100 mg/kg/day, 7 days; relative to: vehicle): -2.6

CCOC(=O)COc1ccc2c(=O)c3ccccc3oc2c1
reaction velocity (ache (Electrophorus electricus, UniProt O42275); enzyme activity; 0.42 µM, added: substrate 0.43 mM; higher = faster reaction): 0.0006 a.u.
